Measurements from different studies.
Numbered parts are unrelated; each lists some results of a single study.

Study 1
Target: Sal-like protein 4, full length isoform B (SALL4, Homo sapiens, UniProt Q9UJQ4-2, residues 1-616)
Technique: universal PBM
Form: double-stranded DNA, one strand shown
Matrix: in vitro
Concentration: not given
Setting: 8-mer, flanks averaged, mean of replicates
Reading: higher = stronger binding
Residues (chain): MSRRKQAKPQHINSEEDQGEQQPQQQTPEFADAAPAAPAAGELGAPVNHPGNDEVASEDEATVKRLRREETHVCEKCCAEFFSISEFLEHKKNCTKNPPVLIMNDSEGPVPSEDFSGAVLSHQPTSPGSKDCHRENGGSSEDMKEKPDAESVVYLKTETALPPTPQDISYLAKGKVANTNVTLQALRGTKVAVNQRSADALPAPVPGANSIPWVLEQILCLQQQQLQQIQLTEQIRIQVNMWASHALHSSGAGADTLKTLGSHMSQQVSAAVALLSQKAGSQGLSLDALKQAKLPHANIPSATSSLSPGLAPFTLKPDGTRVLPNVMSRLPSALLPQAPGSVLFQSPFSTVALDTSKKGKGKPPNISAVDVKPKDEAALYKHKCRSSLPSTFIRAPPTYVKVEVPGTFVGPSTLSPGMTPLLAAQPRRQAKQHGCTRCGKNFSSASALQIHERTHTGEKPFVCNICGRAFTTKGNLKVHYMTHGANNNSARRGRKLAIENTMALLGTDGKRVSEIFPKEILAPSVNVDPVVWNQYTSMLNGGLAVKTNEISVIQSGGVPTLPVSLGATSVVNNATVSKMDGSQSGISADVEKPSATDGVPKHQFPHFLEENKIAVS
| Strand | E-score |
| --- | --- |
| TGCGACCA | -0.104 |
| ACGCCATG | 0.0241 |
| ATAGTTTG | 0.225 |
| GAACTGCC | -0.221 |
| ACAACAAT | 0.197 |
| CCTATACC | 0.0382 |
| CACCGGAA | -0.00883 |
| GACCCCGC | -0.299 |
| AGCCGTAG | -0.234 |
| ACGTCACT | -0.0178 |
| CAGTGGGC | -0.201 |
| CGTCGATC | 0.0265 |
| GGACGGCA | -0.203 |
| CTTCTCAA | 0.0325 |
| CAATTAAG | 0.177 |
| AGGGTTAT | 0.197 |

Study 2
Target: RNA binding protein fox-1 homolog 2, RRM domain, GST-SBP tag (RBFOX2, Homo sapiens, UniProt O43251-10, residues 100-194)
Technique: RNA Bind-n-Seq
Form: RNA
Matrix: in vitro
Concentration: 365 nM
Setting: natural RNA segment, single round, ends assumed
Reference: no-protein control
Reading: higher = stronger binding
All sequences stand within: GGGAGUUCUACAGUCCGACGAUC … UGGAAUUCUCGGGUGCCAA
Target sequence (chain): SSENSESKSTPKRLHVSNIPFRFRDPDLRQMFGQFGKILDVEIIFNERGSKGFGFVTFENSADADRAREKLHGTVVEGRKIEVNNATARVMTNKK
| Strand | RBNS enrichment (R) |
| --- | --- |
| GUCAACCAAAGAUGGCAUGACUUACCUGCGCAGAUUUGGAAGCAUUGAACUUAGAGUGCUGGCUCUGCUAUAUGGUACAACUAAUGCUAGACCUACAGUUUAUGUAUACA | 0.668 |
| CCUGUCACCCCCACUCCCGCCUCAGGGCCAGGCCCAGGCCUCACCACCUGACGCUGCAUGAGACAUUGACACCAGAAAGCCCUCUUGGGGGCACUGCUCCCUACCCCAGG | 13.6 |
| ACAUGGAAGUAGACCGGCUCUGCUGAUUUGAAAUUUAGAUUUUUUUUUAAUUAUGUACUGGGGACAGGUUUUUGUCGCUUUACAUUGCUUCCUAGUUUACAGCAUGAUGC | 1.18 |
| CUAUAAGUGGUGCCCAGUGUUCAUGGGGUCUGGUCUUUGACCGGCCUCUGGUGCCCACUUUUGUCUCCCACUUUACCAGGUGGGCCACAUGCACUGAGUGUCACUUUGCU | 0.254 |
| CCAUCUUAAAAAGAUUUAGAGUGGAUUAACCAGGUCAUUACAUCUUAAUUUAAUAACAAGCAUUACUGUAGAGUGAUUGUGUGUAGGUAUCUAAUAGGUGUGUUUUUUUU | 0.647 |
| UACCGAUGCUUAAUUUACAUUUUUGGAGUUGAAUAUUAUUCCGGUGCCUCCACCACCCCCAGCAGAAAAAAUAAGAUACUGAAAUAAGUUGAGUCAUUUCGCAAACAUUU | 0.424 |
| GAAUCGAGGCUCCUUUGACCAUCAAAAUGAUGAACUUUACUUAUGUGGUACCCAAUGCCAGAAUGUAAGAGUUGCAAGUGAUUUUGUGCUGCUAUUCAUUAAAACUUGUA | 0.948 |
| UUGGGACCCGCUGGUGACAGUGGCUCAGAAGAGGGACAGAAAAGCCUUGGACUUAGAUCUGGGUUCUAACAGACUGAAUGUGCACCUUGGGUCUCAGACUCAGUUUCCCC | 0.263 |
| UCCUCUUUCAUAUAAAUAAGAAGUGGAAAUUGCCUUUUUAUUGUGUAAUGUAGAAAACCCUCAAGUGUUUUUUCCGAGCUUGGGAAAGAUUUUGUGUAGGAAAUGUGCAU | 0.938 |
| AAAUCAUGUUUAAAAUGAUAAAACUCCAUCUUAUAUAUAGACUUUUGUAUAGCUUCAAGAACUUUAUACCUGUACAGCUCUAACAUGACACUGCUCCACUCAGUAUUCAU | 1.09 |
| UCUUUCUUUUAAAACUUGUUUCAUUUAUGAUCAUGUAGAGAGCCACUAGGAGGCCUGCAGUUAUUUUUGAAUGUGAAAAUGCAUUUGCGUUCAUCUUGUCUAUUUUUUCU | 0.559 |
| AAAAUAUACUGAAAGCCUGUUUUCAUUUGAUUCCAAUGUUUCUUCCAAAGAAUUCUGUAUAAACAUAUGCCAAUUCCCUAUGAUGGUCUAGAGUUAGGAAUGAGUGUUUA | 2.08 |

Study 3
Target: Histone acetyltransferase KAT6A, winged helix 1, GST fusion (KAT6A, Homo sapiens, UniProt Q92794, residues 1-85)
Technique: protein binding microarray
Form: double-stranded DNA, one strand shown
Matrix: in vitro
Concentration: not given
Setting: 8-mer, flanks averaged, mean of 2 arrays, mostly near background
Reference: not given
Reading: higher = stronger binding
Target sequence (chain): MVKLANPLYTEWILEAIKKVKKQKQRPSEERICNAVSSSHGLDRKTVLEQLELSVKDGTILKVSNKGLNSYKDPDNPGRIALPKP
| Strand | E-score |
| --- | --- |
| GCTCGAGA | -0.0352 |
| CCCCTAAA | -0.108 |
| CGCCGCCG | 0.479 |
| TACTCAGA | -0.0589 |
| ACCTTAGG | -0.00928 |
| CTTCATCC | -0.121 |
| CAATCGAG | -0.158 |
| CGCGTAAG | 0.364 |
| AGTCCTAG | -0.235 |
| ACTCCTCA | -0.186 |
| CCCGAAGA | 0.0658 |
| AAGATGAT | -0.213 |
| AATGTATA | -0.135 |
| AAGTAACG | -0.05 |
| CGCCGTAC | 0.422 |
| CAGCACGC | 0.161 |
| GAATGCCC | 0.0268 |
| TACTCATA | -0.0156 |
| AGACGTGA | -0.0663 |
| AGTTTTGA | -0.204 |

Study 4
Target: RING finger protein unkempt homolog, zinc fingers 1-6, GST-SBP tag (UNK, Homo sapiens, UniProt Q9C0B0, residues 30-357)
Technique: RNA Bind-n-Seq
Form: RNA
Matrix: in vitro
Concentration: not given
Setting: RNA with constant flanks, human and mouse sites, ends assumed
Reference: input RNA pool
Reading: higher = stronger binding
All sequences stand within: GGGAGUUCUACAGUCCGACGAUC … CAACAGAGGAUUGAGCAUCA
Construct (chain): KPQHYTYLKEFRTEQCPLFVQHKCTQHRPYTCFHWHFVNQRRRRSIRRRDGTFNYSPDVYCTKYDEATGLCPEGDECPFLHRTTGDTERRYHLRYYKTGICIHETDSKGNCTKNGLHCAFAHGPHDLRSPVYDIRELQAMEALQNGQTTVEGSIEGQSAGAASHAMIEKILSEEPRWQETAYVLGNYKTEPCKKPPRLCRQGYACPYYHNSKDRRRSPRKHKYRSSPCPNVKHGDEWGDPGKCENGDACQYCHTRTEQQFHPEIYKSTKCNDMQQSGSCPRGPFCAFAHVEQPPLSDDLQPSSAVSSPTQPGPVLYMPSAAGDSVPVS
| Strand | bound/input enrichment [ratio] |
| --- | --- |
| AAAUUAGUGGGCAAAGAAACAUUCUAUGUUGGAGCUGCAAAGACAAAAGCGACCAUAAAUAUAGACGCUAUCAGUGGUUUUGCUUAUGAAUAUACUCUGGAAAUUAAUGGGAAAAGUCUC | 0.769 |
| CAAGAAACAGAAGUUGCCAUUGGCUACUGCUUGGCCUUUGAGCACAGAGAAAAAAUGUUUAAUAGACUGAGGAUCGAGUCAAAGGACUUACUGUUGUACAGCAAUGUUAAGAAGUGAACA | 0.181 |
| CGUACCCUCAAUAAGGUUGCCAUGAAGCAUCCGUCAGCUGUGACAGCUUGUAAUCUGGAUCUGGAGAACCUGGUCACAGAUUCAAACCGCAGCAUUGCCACGCUGGCCAUCACCACCCUC | 0.165 |
| UCCACGGAUGUUUAAUAUCAUCUCAGAUUCCCCAUCUCCUAUUGCUGCAAGAACACUGACAUUAGUGGCUAAAUCUGUGCAGAAUUUAGCAAAUCUUGUGGAAUUUGGAGCUAAGGAGCC | 0.0852 |
| UUAUAGGAUUCCAAACCCAUGAGACAUGUUUUACAGGAAAUGAAAGCAUGAAUACUCAGGUAGCUGGAAGUGAGUUAAACAUGACAGGGACAGGUGGCAUUAAAACUGAGUCUAAAAGCU | 0.353 |
| AAGAGGUUAUGUCACAUCAGAGGAAAAUUGAGAAAAAAGGUUUGGAUAAAUACCUCGGACAUUAUUUUGGUUGGUCUCCGAGACUACCAGGAUAACAAAGCUGAUGUAAUUUUAAAAUAC | 0.167 |
| GACGCUGUGGCAGCUAUGGCAAAAGAUAAAGCAAAUAUGCAACACAGAUAUGUGGAGCUCUUCUUGAAUUCUACCGCAGGGACAAGUGGAGGAGCUUAUGAUCAUAGCUAUGUAGAGCUC | 0.284 |
| GUCCCACCAGCACUCGGCAGUAAUCUGGCUGACAAUGUCAUGAUUACUGUAGAUAUUAUUCCUUCUGGUUGGAAUUCAACUGAUGGGAAAAAUGAUAAAGCUAAAAGUGCACCUUCAAGA | 0.128 |
| AGGUAGUCUUUGACACUCUCUGUGGUAGCUCUCAAGGCCCACGGUUGUUCAGUCCCAUCCUUCAGGGGUGCUUGGGCGGGUUCUGCCCUUGCAGCCUUCGCACUAAUACCAAGGUAGCUC | 0.0824 |
| GCAUUUGACGAUAAUGAUGGAUAUUGAUGGCAAGCAUGAGUGGAGGGACUGCAUUGAAGUGCCCGGAGUCCGCCUGCCCCGCGGCUACUACUUCGGCACCUCCUCCAUCACUGGGGAUCU | 0.202 |
| AUUUUUUUUUUUAAAUGUGUGUAGACUGUAACUUUCUUUUCAGUUCGUAUGCAGAACAUAUUUAGCCAUUACCCAUGCAACACCACCCGAUAUAUUACUGAUUUAGAAGCAAAGAUUUCA | 9.91 |

Repeated from above (study 2):
| Strand | RBNS enrichment (R) |
| --- | --- |
| CCAUCUUAAAAAGAUUUAGAGUGGAUUAACCAGGUCAUUACAUCUUAAUUUAAUAACAAGCAUUACUGUAGAGUGAUUGUGUGUAGGUAUCUAAUAGGUGUGUUUUUUUU | 0.647 |
| AAAAUAUACUGAAAGCCUGUUUUCAUUUGAUUCCAAUGUUUCUUCCAAAGAAUUCUGUAUAAACAUAUGCCAAUUCCCUAUGAUGGUCUAGAGUUAGGAAUGAGUGUUUA | 2.08 |
| ACAUGGAAGUAGACCGGCUCUGCUGAUUUGAAAUUUAGAUUUUUUUUUAAUUAUGUACUGGGGACAGGUUUUUGUCGCUUUACAUUGCUUCCUAGUUUACAGCAUGAUGC | 1.18 |
| UCCUCUUUCAUAUAAAUAAGAAGUGGAAAUUGCCUUUUUAUUGUGUAAUGUAGAAAACCCUCAAGUGUUUUUUCCGAGCUUGGGAAAGAUUUUGUGUAGGAAAUGUGCAU | 0.938 |
| GUCAACCAAAGAUGGCAUGACUUACCUGCGCAGAUUUGGAAGCAUUGAACUUAGAGUGCUGGCUCUGCUAUAUGGUACAACUAAUGCUAGACCUACAGUUUAUGUAUACA | 0.668 |
| UACCGAUGCUUAAUUUACAUUUUUGGAGUUGAAUAUUAUUCCGGUGCCUCCACCACCCCCAGCAGAAAAAAUAAGAUACUGAAAUAAGUUGAGUCAUUUCGCAAACAUUU | 0.424 |
| UCUUUCUUUUAAAACUUGUUUCAUUUAUGAUCAUGUAGAGAGCCACUAGGAGGCCUGCAGUUAUUUUUGAAUGUGAAAAUGCAUUUGCGUUCAUCUUGUCUAUUUUUUCU | 0.559 |
| CCUGUCACCCCCACUCCCGCCUCAGGGCCAGGCCCAGGCCUCACCACCUGACGCUGCAUGAGACAUUGACACCAGAAAGCCCUCUUGGGGGCACUGCUCCCUACCCCAGG | 13.6 |
